Assay results gathered from unrelated publications.
Each line is one published result; not all experiments were run side by side.
Target: Phosphatidylinositol 4-phosphate 5-kinase type-1 alpha (PIP5K1A, Homo sapiens, UniProt Q99755)

| Compound | test | conditions | how to read | quantity | result |
| --- | --- | --- | --- | --- | --- |
| CNC(=O)C1CCN(c2cc(C)c(F)cc2NC(=O)c2ccc(-c3cc(O)ccc3C)c(C)c2)CC1 | binding, competition with immobilised ligand | 1 µM |  | remaining binding | 97% |
| C=CC(=O)N1Cc2nc(-c3cc(-c4cc(Cl)cnc4Cl)c(F)cc3F)n(-c3ccncn3)c2C1 | cell-free assay, inhibitor | 1 µM |  | inhibition | 1.9% |
| Cc1nc2c(F)cc(-c3nc(Nc4ccc(CNC(=O)CCCCCCC(=O)NO)cc4)ncc3F)cc2n1C(C)C | enzyme activity, inhibitor | 1 µM |  | inhibition | 0% |
| COc1cc(Nc2nc(C)cc(-c3cnn4nc(OC)ccc34)n2)cc(C(F)(F)F)c1 | inhibitor | 1 µM | reference: control | remaining activity | 81% |
| CN1CC[C@@H](COc2cnc(C#N)cc2-c2ccn3nc(NC(=O)C4CC4)cc3c2)C1 | enzyme activity, inhibitor | 1 µM |  | inhibition | 2% |
| C[C@]1(O)CCCN(c2nc(Nc3ccc(S(=O)(=O)N[C@H]4CC[C@H](CN5CCN(c6ccc(C7CCC(=O)NC7=O)cc6F)CC5)CC4)cc3)ncc2C(F)(F)F)C1 (stereo partly drawn) | binding, competition with immobilised ligand | 1 µM |  | remaining binding | 4.5% |
| Nc1ncc2c(n1)-c1c([nH]c3ccc(C4=CCOCC4)cc13)CCC2 | binding, competition with immobilised ligand | 1 µM |  | remaining binding | 90% |
| COc1cc(Nc2nccc(-c3cnn4nc(OC)ccc34)n2)cc(C(F)(F)F)c1 | binding, competition with immobilised ligand | 1 µM |  | remaining binding | 100% |
| Cc1ccc(-c2c(/C=C(\C#N)C(=O)NC(C)C)n(CCCO)c3ncnc(N)c23)cc1 | cell-free assay, competition with immobilised ligand | 1 µM |  | remaining binding | 100% |
| O=C(Cc1ccc(OCc2ccccc2)cc1)NC1(C(=O)O)CCN(C(=O)c2ccc(-c3cccc(Cl)c3)cc2)CC1 | enzyme activity, inhibitor | 10 µM |  | activity vs control | 113% |
| COc1c(Cl)cccc1Nc1c(-c2ccncc2C#C[C@@]2(C)CCCN2C(=O)/C=C/CN(C)C)[nH]c2c1C(=O)NCC2 | cell-free assay, competition with immobilised ligand | 3 µM |  | remaining binding | 36% |
| C=CC(=O)N1CCCC(n2c(=O)c3ncccc3n(Cc3ccc(Oc4ccccc4)cc3)c2=O)C1 (stereo not drawn) | cell-free assay, competition with immobilised ligand | 1 µM |  | remaining binding | 100% |
| CNC1C[S+]2CC[S+]3CC[S+](C1)[Ru-4]321([N]=C=S)[n]2c3ccc(OC)cc3c3c4c(c5cc(F)c[n+]1c5c32)C(=O)NC4=O (stereo not drawn) | KinomeScan | 0.1 µM | reference: untreated | remaining binding | 43% |
| CC(C)=CC1OC(C)(C)C2C=C3C(=O)C(Cl)=CC(O)C3C3C(O)C4OC4C(=O)C132 (stereo not drawn) | cell-free assay, competition with immobilised ligand | 10 µM |  | remaining binding | 100% |
| CCN1CCN(Cc2ccc(C(=O)Nc3ccc(C)c(NCc4cnc5[nH]ccc5c4OC)c3)cc2C(F)(F)F)CC1 | binding, competition with immobilised ligand | 1 µM |  | remaining binding | 100% |
| C=CC(=O)N1CCc2ccc(-n3c(=O)ccc4cnc5ccc(-c6cnn(C)c6)cc5c43)cc21 | KINOMEscan | 1 µM | reference: DMSO control | remaining binding | 82% |
| CNC(=O)C[C@H](Cc1ccc(C#N)cc1)NC(=O)c1cc(-c2ccc(CN[C@H](C)c3ccc(C)cc3)o2)ccc1Cl | enzyme activity, inhibitor | 1 µM |  | activity vs control | 103% |
| Cc1cnc2nc1Nc1cccc(c1)COC/C=C/COCc1cc(ccc1OCCN1CCOCC1)N2 | binding | 0.1 µM |  | remaining binding | 65% |
